Published values collected from several papers.
A part holds a random share of what one study measured. Positions count from the first letter of the parent shown.

Series 1
Partner: ARF6 790-935 (Arabidopsis thaliana, UniProt Q9ZTX8)
Technique: two-hybrid
Reference: out of 4 tests
Reading: higher = firmer interaction
Endpoint: positive tests
B1: ARF2 727-859 (Arabidopsis thaliana, UniProt Q94JM3); chain TKTNSSRSCTKVHKQGIALGRSVDLSKFQNYEELVAELDRLFEFNGELMAPKKDWLIVYTDEENDMMLVGDDPWQEFCCMVRKIFIYTKEEVRKMNPGTLSCRSEEEAVVGEGSDAKDAKSASNPSLSSAGNS
B2: IAA34 (Arabidopsis thaliana, UniProt Q9C5X0); chain MYCSDPPHPLHLVASDKQQKDHKLILSWKKPTMDSDPLGVFPNSPKYHPYYSQTTEFGGVIDLGLSLRTIQHEIYHSSGQRYCSNEGYRRKWGYVKVTMDGLVVGRKVCVLDHGSYSTLAHQLEDMFGMQSVSGLRLFQMESEFCLVYRDEEGLWRNAGDVPWNEFIESVERLRITRRNDAVLPF
B3: ARF1 538-665 (Arabidopsis thaliana, UniProt Q8L7G0); chain SRQIRSCTKVHMQGSAVGRAIDLTRSECYEDLFKKLEEMFDIKGELLESTKKWQVVYTDDEDDMMMVGDDPWNEFCGMVRKIFIYTPEEVKKLSPKNKLAVNARMQLKADAEENGNTEGRSSSMAGSR
B4: IAA33 (Arabidopsis thaliana, UniProt Q9FKM7); chain MNSFEPQSQDSLQRRFHQDNSTTQQPRDTTTPFIPKPASKNHNNSNSSSGAAGRSFQGFGLNVEDDLVSSVVPPVTVVLEGRSICQRISLDKHGSYQSLASALRQMFVDGADSTDDLDLSNAIPGHLIAYEDMENDLLLAGDLTWKDFVRVAKRIRILPVKGNTRQVKRNE
Residues (chain): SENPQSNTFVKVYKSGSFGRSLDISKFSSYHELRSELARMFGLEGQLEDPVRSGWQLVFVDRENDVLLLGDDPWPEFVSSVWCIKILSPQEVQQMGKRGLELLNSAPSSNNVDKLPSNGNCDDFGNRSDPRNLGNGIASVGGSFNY
B1 (ARF2 727-859): 1
B2 (IAA34): 3
B3 (ARF1 538-665): 0
B4 (IAA33): 3

Series 2
Target: RING finger protein unkempt homolog, zinc fingers 1-6, GST-SBP tag (UNK, Homo sapiens, UniProt Q9C0B0, residues 30-357)
Technique: RNA Bind-n-Seq
Form: RNA
Sample: in vitro
Concentration: not given
Setting: RNA with constant flanks, human and mouse sites, ends assumed
Reference: input RNA pool
Reading: higher = stronger binding
Endpoint: bound/input enrichment
Constant ends, left off below: GGGAGUUCUACAGUCCGACGAUC … CAACAGAGGAUUGAGCAUCA
Target sequence (chain): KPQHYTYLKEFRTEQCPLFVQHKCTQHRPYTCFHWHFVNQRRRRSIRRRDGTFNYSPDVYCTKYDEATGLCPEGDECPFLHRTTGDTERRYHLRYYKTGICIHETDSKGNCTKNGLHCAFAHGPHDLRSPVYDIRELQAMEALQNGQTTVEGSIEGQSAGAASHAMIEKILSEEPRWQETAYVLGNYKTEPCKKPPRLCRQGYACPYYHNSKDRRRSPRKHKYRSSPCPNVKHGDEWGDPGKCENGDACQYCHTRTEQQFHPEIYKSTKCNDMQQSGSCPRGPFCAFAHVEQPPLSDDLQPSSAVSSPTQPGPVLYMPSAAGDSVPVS
GGGGUGCCAGCGCUGACGCAGAACCUACCAAGGAUACUCAGAAAAGAACGUCCUAUAUCAUUAGGGAUUUUCCCUCUACCUGCUGGAGAUGGAUUGCUUACACCUGACACUCAGAAAGGA: 0.219 ratio
GGGAAAGCUUUCAUUCAGAAGUCAAGCCUCAUUAGACACCAGAGAAGUCACACAGGAGAGAAACCUUAUACGUGUAAGGAAUGUGGGAAAGCCUUCAGUGGCAAGUCAAAUCUCACAGAG: 0.302 ratio
AAAAGACCAUAUGUUGAUUCUACCUGUGUUCUGUUCCAGCGAAUUGGGAAGUCUCACCAAGCUAGAUUGUCUACCAUCAGCCCAGAACUCUGUAACUUUUCAGAACUGCUAUACUCAAAC: 0.25 ratio
GCCGAUGAAGUGCAGAGGUUUUUUUCUGACUGCAAAAUUCAAAAUGGGGCUCAAGGUAUUCGUUUCAUCUACACCAGAGAAGGCAGACCAAGUGGCGAGGCUUUUGUUGAACUUGAAUCA: 0.0899 ratio
AUCACCCAGCUGAACCUCAGCGGCUACCGAAAGAACCUCCAGAAAACAGAUCUUUGUACCAUAAUUAAACGAUGCCCCAACCUCAUCCGCCUCGACUUAAGUGACAGUAUCAUGCUAAAG: 0.253 ratio
CCUGAAGAAAACCCUGGGUCACCUUCUAGAGAAUCACCUCUUUCAGCACCUUCAGAUCAUUCUUAGAUCCAAGGUGUAAUACCUUUUCAGUGUAUCAUGGGUGGUCUUGUUCAUCCCCUU: 0.135 ratio
CCCAGGCGGUCUUCCUUCAGAUUGCAGACUGAAGCCCAGGAAGAUGAUUGGUAUGACUGUCAUAGGGAAAUACGUCUGAGUUUUUCUGAUACCUAUCAGGAUUAUGAGGAGUACUGGAGA: 0.17 ratio
AAAGAUUGAUCUGUGGGCUGGUGAACUUAUCUGGGUCCCAGUCCGAGCAGCAGAGGAGAUUAGCACAGCGCUUGCUGGAGAAUGAUAUCUGUCAAAAGAAACACUUGGAGAGCACUGAGU: 0.208 ratio
CCUGCUGUGAACAUCCAGCCCGACAUUGCUGGAGGUUGGGACUGGCACACCAAACCAGGAGGUUUUGGAAUGGGGAGCAAAUCCGCUGCCACCAGCCCGACAGGCUCAUCACAUGGCACC: 0.0811 ratio
GAAACUAUUCCUAAAGAGGAGAGAGCUGAGAAGGAUGCUCGGAGACCGUCUCUCGAGAAACAUAGAAAAGAAAAGCCUUUUAAAACCGGGAGAGGCAGAAUUUCCACUCCUGAAAGAAAA: 0.486 ratio
UUCUAUAACACUGGUUGAGAAAGUUCAGAUGAUCGCUGUAAUCCUAGGAUCCCUGUUCUUAAUAGCGAGUGUGACUUGGCUCCUCUGGUCAGCCUUCAGCCCCUAUGCAGUGUGGCAGAG: 0.319 ratio

Series 3
Target: ABI1, truncated, D143A, DHFR fusion (Arabidopsis thaliana)
Technique: DHFR PCA, deep sequencing
Sample: yeast
Setting: methotrexate growth selection, single substitutions
Together with: (+)-ABA 58 µM
Reference: wild-type fitted maximum
Reading: higher = stronger binding
Endpoint: relative binding score
Starting sequence: PYL1, truncated, DHFR fusion (Arabidopsis thaliana); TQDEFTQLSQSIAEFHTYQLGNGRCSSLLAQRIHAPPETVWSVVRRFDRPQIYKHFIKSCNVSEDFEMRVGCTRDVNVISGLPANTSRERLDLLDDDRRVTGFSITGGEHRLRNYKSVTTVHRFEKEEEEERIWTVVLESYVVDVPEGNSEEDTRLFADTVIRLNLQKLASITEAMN
G102Y: -3.5%
I79K: 78.4%
G71P: 33.9%
S117Y: -13%
F157N: 3.67%
D144T: 60.4%
I57Q: 7.67%
L169T: 0.773%
W134D: 90.3%
G81C: 37.2%
L164P: 7.33%
P83F: 10.7%
H34Y: 86.9%
R132S: 103%
S63Y: 63%
E129I: 87.7%
Q2T: 86.3%
E151W: 70.7%
H16R: 8.38%

Series 4
Target: Histone acetyltransferase KAT6A, winged helix 2, GST fusion (KAT6A, Homo sapiens, UniProt Q92794, residues 85-181)
Technique: protein binding microarray
Form: double-stranded DNA, one strand shown
Sample: in vitro
Concentration: not given
Setting: 8-mer, flanks averaged, mean of 2 arrays, mostly near background
Reference: not given
Reading: higher = stronger binding
Endpoint: E-score
Residues (chain): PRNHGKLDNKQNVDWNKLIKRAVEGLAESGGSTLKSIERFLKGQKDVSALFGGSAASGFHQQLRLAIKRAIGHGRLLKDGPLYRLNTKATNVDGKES
TGACATAA: -0.0948
GTCGAAGA: 0.114
AAGTATAC: 0.0753
CACTGAAA: 0.0473
CATAATAC: -0.24
CCGTCCTA: -0.243
ATCAAACC: -0.0576
AGGCAATG: 0.0597
GACTCATA: -0.0626
ACCGACCC: 0.0521
ACTGGGGA: -0.245
AACTACGC: -0.0101
CAATAAGC: 0.0143
AATGGTTA: -0.0713
CATCTCTA: -0.0927
GCTAGGGA: -0.168
ATGCTTAA: -0.0795
CGTTGTGA: 0.0438
GGATTGCC: 0.185
AAAATGTA: 0.0546
ACCACCCG: 0.114
GGGCCCGA: 0.092
AGATCAAC: -0.00775
CATCACGG: -0.137
AATATCCG: 0.17

Series 5
Target: CCND3, cyclin fold, Cln2 fusion (human)
Technique: yeast growth competition, sequencing
Sample: yeast
Setting: weak parent motif
Reference: not given
Reading: higher = stronger binding
Endpoint: normalised enrichment score
Starting sequence: PKN2 docking peptide (human); VSAVRKLDFSDTM
S2Q: 0.577
K6T: 0.648
K6H: 0.22
K6N: 0.246
S2N: 0.519
S10L: 0.665
S10F: 0.157
D11G: 0.494
S10G: 1.27
T12Q: 1.03
V4G: 0.118
L7H: 0.294
K6I: 0.715
F9R: -0.0236
D8Q: 0.621
D11H: 0.0153

Series 6
Target: Interferon regulatory factor 7, full length, phosphomimetic (IRF7, Homo sapiens, UniProt Q92985, residues 1-503, S101K/S471D/S472D/S475D/S476D/S477D/S483D/S484D/S487D)
Technique: protein-binding microarray
Form: double-stranded DNA, one strand shown
Sample: in vitro
Concentration: 250 nM
Setting: 60-bp whole probe
Together with: salmon DNA 0.4 mg/ml
Reference: random background probes
Reading: higher = stronger binding
Endpoint: log fluorescence
Constant ends, left off below: GCCTAGCAC … GTCTTGATTCGCTTGACGCTGCTG
Construct (chain): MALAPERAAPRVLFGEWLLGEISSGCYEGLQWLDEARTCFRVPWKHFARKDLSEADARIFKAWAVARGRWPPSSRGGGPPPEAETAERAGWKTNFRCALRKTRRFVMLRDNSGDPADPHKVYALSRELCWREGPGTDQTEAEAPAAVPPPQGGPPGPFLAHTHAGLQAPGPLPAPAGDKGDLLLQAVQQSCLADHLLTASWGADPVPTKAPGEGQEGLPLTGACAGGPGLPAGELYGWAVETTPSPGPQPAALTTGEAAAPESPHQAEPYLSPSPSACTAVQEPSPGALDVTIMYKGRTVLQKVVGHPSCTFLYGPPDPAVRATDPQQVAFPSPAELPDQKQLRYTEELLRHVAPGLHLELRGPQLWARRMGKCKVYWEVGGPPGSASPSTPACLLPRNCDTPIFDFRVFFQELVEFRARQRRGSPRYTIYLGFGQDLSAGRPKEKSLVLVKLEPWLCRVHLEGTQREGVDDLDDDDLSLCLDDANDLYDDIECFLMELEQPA
GAAGGTATCGGGACTGGGGACGTGCTA: -0.281 z-score
AACAATATATATATTATATAGTGCTAG: 0.579 z-score
GACGGTTTCGGGACTGCGGACGTGCTA: 4.51 z-score
TCAGCTTTGTGCCTAGCACTGTGCTAG: -0.519 z-score
TTAGAACTTAGTATCGATTAGTGCTAG: 1.12 z-score
TTAGATTTTGGGTATCGATTAGTGCTA: 0.469 z-score
TTCGGACTGCTTCTCCTTTAGTGCTAG: -0.189 z-score
TTAGAACTGGGGTATCGTTTAGTGCTA: 0.254 z-score
GACGGTTTCGGGTTTAGGGACGTGCTA: 10.7 z-score
TTGGGTTCCCTTTTCCTTTAGTGCTAG: 3.17 z-score
TTAGGACTGCTCTTCCTTTAGTGCTAG: -0.0319 z-score
GACGGTTTCGGTCTCAGGACGTGCTAG: 8.01 z-score
TCATCTGTGCCTTTTTTACTGTGCTAG: 0.233 z-score
GACGATATCGGGACCGGAGACGTGCTA: -0.265 z-score
TTAGGTTTCGGTAACGGTTAGTGCTAG: 3.95 z-score
TTAGCACTGGGTCTCGGTTAGTGCTAG: 0.476 z-score
TTAGGACTGGGGACTGGGTCAGTGCTA: -0.56 z-score
GACGATTTTGGGTTTCGAGACGTGCTA: 2.69 z-score
GACGGTCTCCTTTGCCTGACGTGCTAG: 0.053 z-score
TTAAGACTGGGGACTGGGTTAGTGCTA: -0.123 z-score
GATGGTTTCCTACTGCTGACGTGCTAG: 1.33 z-score
ACAGCTCTGCGGTTCAGATAGTGCTAG: -0.592 z-score
GACGGTATCGGGTTTCGGGACGTGCTA: 3.44 z-score
ATAGGTTTCGGGACTGGGTTAGTGCTA: 3.84 z-score
GACGGTTGCCTTCTCCTGACGTGCTAG: -0.242 z-score

Some of these lines once more (series 6):
TTAGAACTTAGTATCGATTAGTGCTAG: 1.12 z-score
ACAGCTCTGCGGTTCAGATAGTGCTAG: -0.592 z-score
GACGGTTTCGGTCTCAGGACGTGCTAG: 8.01 z-score
TTGGGTTCCCTTTTCCTTTAGTGCTAG: 3.17 z-score
TTAGGTTTCGGTAACGGTTAGTGCTAG: 3.95 z-score
GACGGTATCGGGTTTCGGGACGTGCTA: 3.44 z-score
GACGGTTGCCTTCTCCTGACGTGCTAG: -0.242 z-score
GACGATTTTGGGTTTCGAGACGTGCTA: 2.69 z-score
TTAAGACTGGGGACTGGGTTAGTGCTA: -0.123 z-score
GACGATATCGGGACCGGAGACGTGCTA: -0.265 z-score
GATGGTTTCCTACTGCTGACGTGCTAG: 1.33 z-score
TCAGCTTTGTGCCTAGCACTGTGCTAG: -0.519 z-score
ATAGGTTTCGGGACTGGGTTAGTGCTA: 3.84 z-score
TCATCTGTGCCTTTTTTACTGTGCTAG: 0.233 z-score
GAAGGTATCGGGACTGGGGACGTGCTA: -0.281 z-score
TTAGCACTGGGTCTCGGTTAGTGCTAG: 0.476 z-score
TTAGAACTGGGGTATCGTTTAGTGCTA: 0.254 z-score
